Measurements of several laboratories.
Parts stem from different laboratories: compare values within a part only. Substitutions count along the parent as printed.

Sample 1
Target: RNA binding protein fox-1 homolog 2, RRM domain, GST-SBP tag (RBFOX2, Homo sapiens, UniProt O43251-10, residues 100-194)
Technique: RNA Bind-n-Seq
Molecule type: RNA
Sample: in vitro
Tested at: 365 nM
Setting: natural RNA segment, single round, ends assumed
Reference: no-protein control
Reading: higher = stronger binding
All sequences stand within: GGGAGUUCUACAGUCCGACGAUC … UGGAAUUCUCGGGUGCCAA
Construct (chain): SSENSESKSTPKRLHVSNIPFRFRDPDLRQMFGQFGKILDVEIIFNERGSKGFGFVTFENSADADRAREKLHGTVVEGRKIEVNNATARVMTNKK
| Strand | RBNS enrichment (R) |
| --- | --- |
| CGAUUGCAUUUAUUAAGCAUCUUUCUGCUCCCGACUUUCUGGUGUCUCUGGCACCAAAUAACCCAGCAGACAUGAGCCUUGCCUUCUGAGAUUUUAGAAUCUAAGAUAGC | 0.777 |
| AAAGUAUGUUCAUGAAUACCCCAAGCAUCAAGGUCUAAAUAAUUUUCAGAAGAUUAGAAUUGGGUAGAUAUACUGUUGGAUAUAGCCAUGGUAAAUUUAACUGAGGAAUU | 0.62 |
| GCCCAAGAUUUUUUAUUUGAGGGUUUUUUGUUUUUUAAAAAAAAAUUGAACAAAGACUACUAAUGACUUUGUUUGAAUUAUCCACAUGAAAAUAAAGAGCCAUAGUUUCA | 0.81 |
| AGGCUGGGCGGCCAGCCUUGCACUAUGUCCCAGCCCCACUACUGAACACUACUGACUUAGACUGCUGACUGCCAGAGGUAGCUACCCUCAUGCCAUCGCCAUGACCCCCC | 0.709 |
| CCAGUACUGGGAAACAUGGAAUGUGGCAAACUGUCCCACACUCCAAGCCAUUCUCCAAGGGGGCCUGGCACAGUAAGCACUUCAAGCAUGAAUUGGGUAAGCUGGUUUGU | 3.02 |
| AUUUUUAAACAUAACACCUAACCUAACAUGGGUAAGAGAGUAUGGAACUAGAUAUGAGCUGUAUAAGAAGCAUAAUUGUGAACAAGUAGAUUGAUUGCCUUCAUAUACAA | 0.368 |
| UCUCAUUACUUAUAGUUUAUCUAUAUUAAACAAAUUUAAUUGCAUUUUAAAGCAUUCUUUGAUACUGUUGCUUUUGCAAUAAAUAUGGAUAAUCUUGGUUAUAAGGGAGU | 0.56 |
| CUUUUGGAAUUUUCCACAGGUACCUGUACAACUUGAUAUUUGAAAACAGGAUUCAUCACCAUAUAUCCCCAGCCCCCGUUUUCUUUUUAAACAGGCCUCAUUGCGUAAUU | 0.506 |
| CAUUGAUGCGGACAGGUAAGAACAACCCAUGUACCCCCGAGUGAUUGCAUGCUUUAUUCUACCUCUAAGCCAUCGUGUUGACGUGGGUAUGGACGCCUGGGUCUGACCUG | 3.25 |
| AAGAAAAAUUACUUUUUACUUCUGUUCUUAUCCAUUCGGCAUGUUGUCUUCUUUUUUCCUUUUUAAAGGUAGUGGUAUAACUAACUAAUAACUUUCAAAAUUACCUGCUU | 2.73 |
| AAUGCUAAAAUCUAUUCGCAAGAGUUUUGAGCUAACUUCGUCUCUUAAAUUGCUUUAAUUGUCAUCAAUAAAAACAAAUAUGAAAAACCCUAGUUUAAAAAGCGGUUCAA | 0.348 |
| UGGGUGUGGAUGAGUAUUUUUCUGACCCCAGCCCUGCAGUGGAACCUAAUAAAAGCACCUGAAGCGAUGUCCUGCUCCCAGUGCAUUGUUCCUGUGCCCAGAACCACAGU | 0.202 |

Sample 2
Target: Ras GTPase-activating protein-binding protein 1, full length (G3BP1, Homo sapiens, UniProt Q13283)
Chain of UniProt Q13283 (whole entry, looked up): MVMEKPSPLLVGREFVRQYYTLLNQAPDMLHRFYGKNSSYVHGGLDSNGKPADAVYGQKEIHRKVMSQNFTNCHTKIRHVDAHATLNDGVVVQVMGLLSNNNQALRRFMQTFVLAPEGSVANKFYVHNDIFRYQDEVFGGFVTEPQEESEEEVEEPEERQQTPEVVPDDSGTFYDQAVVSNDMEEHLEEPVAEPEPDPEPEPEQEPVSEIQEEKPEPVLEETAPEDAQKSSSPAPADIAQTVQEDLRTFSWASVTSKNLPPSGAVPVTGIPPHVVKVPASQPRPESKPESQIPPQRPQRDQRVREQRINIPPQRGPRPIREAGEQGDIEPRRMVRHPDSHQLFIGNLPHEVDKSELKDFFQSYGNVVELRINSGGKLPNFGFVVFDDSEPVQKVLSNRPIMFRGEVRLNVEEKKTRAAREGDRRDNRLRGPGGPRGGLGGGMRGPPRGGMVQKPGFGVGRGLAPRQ
Technique: RNA Bind-n-Seq
Molecule type: RNA
Sample: in vitro
Tested at: 200 nM
Setting: whole 134-nt RNA, ends assumed
With: 150 mM LiCl
Reference: input library
Reading: higher = stronger binding
Each molecule: 7-deaza-guanosine replaces G
All sequences stand within: GGGAGUUCUACAGUCCGACGAUC … UGGAAUUCUCGGGUGUCAAGG
| Strand | log2 enrichment |
| --- | --- |
| CAAGUCCUGUGCUACACAUCGUAUGUACCGAAUCGGAAAAAGGUUUGGAAAAAGGAAAGUAUUAUGUUACGCCGUUCGGAUCUGCACUUC | -1.32 |
| GUCCUGUGCUACACAUCGUAUGUACCGAAUCAAAUUUUUAAACCCAAAUUUUUUUAAAAAAGUAUUAUGUUACGCCGUUCGGAUCUGCAC | -2.01 |
| GUCCUGUGCUACACAUCGUAUGUACCGAAUCGGGAAAAGGGGAAAAGGGGAAAAGGGGAAAGUAUUAUGUUACGCCGUUCGGAUCUGCAC | 0.413 |
| UCCUGUGCUACACAUCGUAUGUACCGAAUCGGGGAGGGGAAAAAGGGGUUUUUUUGGGGAAAGUAUUAUGUUACGCCGUUCGGAUCUGCA | 0.894 |
| UCAAGUCCUGUGCUACACAUCGUAUGUACCGAAUCGGUUUUUGGAGGUUUUUGGAAAGUAUUAUGUUACGCCGUUCGGAUCUGCACUUCC | -0.0377 |
| GUCCUGUGCUACACAUCGUAUGUACCGAAUCGGGGAAAAAGGGGUGGGGAAAAAGGGGAAAGUAUUAUGUUACGCCGUUCGGAUCUGCAC | -0.231 |
| UCAAGUCCUGUGCUACACAUCGUAUGUACCGAAUCGGAAAAAAAGGUUUGGAGGAAAGUAUUAUGUUACGCCGUUCGGAUCUGCACUUCC | -0.68 |
| UGGCCCUGGUGGCAUGCGGGGAGGAAGAGGUGGCCUCAUGGAUCGUGGUGGUCCCGGUGGAAUGUUCAGAGGUGGCCGUGGUGGAGUCAG | 0.177 |
| AGUCCUGUGCUACACAUCGUAUGUACCGAAUCGGGGAAAAAGGGGUGGGGUUUGGGGAAAGUAUUAUGUUACGCCGUUCGGAUCUGCACU | -0.768 |
| GUCCUGUGCUACACAUCGUAUGUACCGAAUCGGGUUUUUGGGGUUUUUGGUUUUUGGGGAAAGUAUUAUGUUACGCCGUUCGGAUCUGCA | -1.03 |
| CCUGUGCUACACAUCGUAUGUACCGAAUCGGGUUUUUUUGGGAAAAAGGGAAAAAAAGGGAAAGUAUUAUGUUACGCCGUUCGGAUCUGC | -1.13 |

Sample 3
Target: Sal-like protein 4, full length isoform B (SALL4, Homo sapiens, UniProt Q9UJQ4-2, residues 1-616)
Technique: universal PBM
Molecule type: double-stranded DNA, one strand shown
Sample: in vitro
Tested at: not given
Setting: 8-mer, flanks averaged, mean of replicates
Reading: higher = stronger binding
Target sequence (chain): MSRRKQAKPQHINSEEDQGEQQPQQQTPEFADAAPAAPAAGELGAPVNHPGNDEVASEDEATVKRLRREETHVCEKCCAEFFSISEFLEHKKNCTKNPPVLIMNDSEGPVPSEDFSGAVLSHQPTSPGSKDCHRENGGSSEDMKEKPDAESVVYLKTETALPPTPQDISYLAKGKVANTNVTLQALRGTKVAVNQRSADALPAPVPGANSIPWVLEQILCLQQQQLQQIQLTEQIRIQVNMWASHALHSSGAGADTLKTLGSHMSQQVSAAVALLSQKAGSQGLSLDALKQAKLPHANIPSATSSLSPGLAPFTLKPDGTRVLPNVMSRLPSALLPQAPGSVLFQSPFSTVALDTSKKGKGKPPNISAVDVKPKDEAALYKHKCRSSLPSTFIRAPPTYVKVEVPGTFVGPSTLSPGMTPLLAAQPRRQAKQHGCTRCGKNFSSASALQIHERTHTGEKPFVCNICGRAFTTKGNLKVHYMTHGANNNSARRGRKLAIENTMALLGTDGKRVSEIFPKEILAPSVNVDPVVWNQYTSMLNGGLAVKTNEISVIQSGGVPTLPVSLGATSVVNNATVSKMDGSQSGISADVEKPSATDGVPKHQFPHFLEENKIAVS
| Strand | E-score |
| --- | --- |
| CCAAGCAA | -0.0927 |
| CCGGAACG | -0.228 |
| CAATCATG | 0.121 |
| AAGTAATG | 0.201 |
| ACCCGGGT | -0.252 |
| CAGAGACG | -0.11 |
| TTGGCCAA | -0.187 |
| ATGGACGC | -0.12 |
| GCCATTAA | 0.1 |
| CACCCTAG | -0.0835 |
| AGGTGCAC | -0.17 |
| AGTTGTTG | 0.0237 |
| ACTTACCG | -0.0363 |
| AGTCTGAA | -0.091 |
| CAATATTA | 0.445 |
| CGCCCATA | -0.0723 |
| CGACTTTC | -0.0649 |
| AGAAGAAT | 0.168 |
| ACGGTTGG | -0.131 |
| CGGAGGAA | -0.293 |
| ACAAAACC | 0.0598 |
| CATCGCTC | -0.282 |
| ATGAAGGC | 0.11 |
| GGGCCACC | -0.362 |
| CTGTAAGA | -0.0311 |

Sample 4
Target: CCNA1, cyclin fold, Cln2 fusion (human)
Technique: yeast growth competition, sequencing
Sample: yeast
Setting: weak parent motif
Reference: not given
Reading: higher = stronger binding
Starting sequence: LLGL2 docking peptide (human); KSLKKSLRQSFRR; partner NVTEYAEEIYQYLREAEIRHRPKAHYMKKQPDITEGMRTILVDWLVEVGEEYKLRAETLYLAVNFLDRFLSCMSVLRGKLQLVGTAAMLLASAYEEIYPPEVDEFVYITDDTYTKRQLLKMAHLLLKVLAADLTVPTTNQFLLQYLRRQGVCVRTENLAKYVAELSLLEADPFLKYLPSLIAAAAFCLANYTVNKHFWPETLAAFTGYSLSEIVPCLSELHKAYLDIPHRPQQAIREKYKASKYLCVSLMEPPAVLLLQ
| Variant | normalised enrichment score |
| --- | --- |
| K5A | -0.252 |
| S6A | -0.351 |
| K4A | -0.0732 |
| L7A | 0.429 |
| R8A | -0.457 |
| K1A | -0.145 |
| L3A | 0.5 |

Sample 5
Target: Histone acetyltransferase KAT6A, winged helix 1, GST fusion (KAT6A, Homo sapiens, UniProt Q92794, residues 1-85)
Technique: protein binding microarray
Molecule type: double-stranded DNA, one strand shown
Sample: in vitro
Tested at: not given
Setting: 8-mer, flanks averaged, mean of 2 arrays, mostly near background
Reference: not given
Reading: higher = stronger binding
Construct (chain): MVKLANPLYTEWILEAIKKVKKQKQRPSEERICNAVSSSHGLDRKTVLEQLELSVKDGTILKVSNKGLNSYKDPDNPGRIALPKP
| Strand | E-score |
| --- | --- |
| CCGTATAC | 0.218 |
| TAGTGTAA | 0.0291 |
| CCTTGCGC | 0.197 |
| CTCTTAAA | -0.293 |
| AGTAGGCG | -0.0658 |
| CCCGGCGA | 0.35 |
| CTAGGCCA | -0.0581 |
| CCGCTGGA | 0.232 |
| CCTCTTAC | -0.188 |
| ACCTCCGG | 0.0653 |
| GACCCATA | -0.103 |
| ACTTACAC | -0.109 |
| GTGAGCGA | 0.0836 |
| GAGTGGGC | -0.0818 |
| GTACAAAA | -0.122 |
| CTAAGAAA | -0.0902 |
| CCAGCAAA | -0.159 |
| AATGATTG | -0.225 |
| GATGTTAA | -0.131 |
| ATTTCTCA | -0.176 |
| CAACCGTC | 0.22 |
| CCCCACTC | -0.212 |
| TCGGTGAA | 0.114 |
| GTGAAATA | -0.143 |
| CTTAGTAA | 0.00455 |

Sample 6
Target: TEF, bZIP domain (human)
Technique: DHFR protein complementation
Sample: yeast
Setting: single substitutions, most at no-binding floor
Reference: wild-type JUN-FOS pair
Reading: higher = stronger binding
Starting sequence: JUN, bZIP domain (human); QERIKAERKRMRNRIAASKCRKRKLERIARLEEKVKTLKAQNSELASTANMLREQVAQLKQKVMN; partner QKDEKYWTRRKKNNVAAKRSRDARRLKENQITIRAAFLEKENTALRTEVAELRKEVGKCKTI
| Variant | binding fitness [natural log] |
| --- | --- |
| A49C | -1.27 |
| A46F | -1.34 |
| E33N | -1.53 |
| M51E | -1.51 |
| L31T | -1.53 |
| A49V | -1.5 |
| Q55P | -1.5 |
| R30C | -1.47 |
| R30P | -1.55 |
| S43L | -1.11 |
| T48W | -1.49 |
| T37G | -1.38 |
| A46N | -1.52 |
| R53D | -1.49 |
| L45R | -1.51 |
| V35S | -1.47 |
| S43C | -1.25 |
| L52F | -1.4 |
| A49P | -1.53 |
| K39W | -1.44 |
| K34W | -1.5 |
| Q55R | -1.35 |

Repeated from above (sample 3):
| Strand | E-score |
| --- | --- |
| CGGAGGAA | -0.293 |
| CAGAGACG | -0.11 |
| AGAAGAAT | 0.168 |
| AGTCTGAA | -0.091 |
| ACCCGGGT | -0.252 |
| CAATCATG | 0.121 |
| CCAAGCAA | -0.0927 |
| ACTTACCG | -0.0363 |
